# Published values of several laboratories.
# Every numbered part comes from another study and shows a few of its results, in no order.

# Block 1 — technique: RNAcompete; form: RNA; medium: in vitro; concentration: 20 nM; notes: 7-mer, probes averaged, single round; reference: mean of 7-mers; direction: higher = stronger binding
# Target: PABPC1L2, full length, GST fusion (mouse, UniProt A0ABA7IW68)
# Target sequence (chain): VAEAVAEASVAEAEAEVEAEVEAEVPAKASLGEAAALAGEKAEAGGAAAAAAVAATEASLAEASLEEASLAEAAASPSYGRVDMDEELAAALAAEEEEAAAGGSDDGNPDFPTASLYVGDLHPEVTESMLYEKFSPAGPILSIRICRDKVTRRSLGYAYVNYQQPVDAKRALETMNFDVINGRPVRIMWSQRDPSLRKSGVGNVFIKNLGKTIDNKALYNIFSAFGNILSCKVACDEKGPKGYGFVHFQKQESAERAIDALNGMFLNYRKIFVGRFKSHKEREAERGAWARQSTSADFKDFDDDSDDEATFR
Oligonucleotide,7-mer Z-score
UGACAUG,-0.0446
GUCCUUC,-0.403
CAUAGAG,-0.137
UCGAUCU,-0.264
AGGUCGA,-0.0754
UUAGGCC,-0.151
UCUGGAG,-0.112
GUGCACA,-0.0881
GGCGGCG,0.309
CAGGGAG,0.14
UGAACCA,-0.0881
CCUCUGA,-0.173
CCCGAGU,-0.182
ACUCUCG,-0.34
ACAGUAA,0.195
AGUCUCU,-0.211
CGUCACC,-0.28
GUUUUCA,-0.429
GUGACUG,-0.0464
GGAUGUC,-0.0482
ACAGUUU,-0.251
CAUUGUU,-0.427
GACUCGA,-0.238
CUUUCCG,-0.478
AUGAUCU,-0.211

# Block 2 — technique: RNA Bind-n-Seq; form: RNA; medium: in vitro; concentration: 1 µM; notes: whole 134-nt RNA, ends assumed; added: 150 mM KCl; reference: input library; direction: higher = stronger binding
# Target: Ras GTPase-activating protein-binding protein 1, RRM domain (G3BP1, Homo sapiens, UniProt Q13283)
# UniProt Q13283, sequence (whole entry, looked up): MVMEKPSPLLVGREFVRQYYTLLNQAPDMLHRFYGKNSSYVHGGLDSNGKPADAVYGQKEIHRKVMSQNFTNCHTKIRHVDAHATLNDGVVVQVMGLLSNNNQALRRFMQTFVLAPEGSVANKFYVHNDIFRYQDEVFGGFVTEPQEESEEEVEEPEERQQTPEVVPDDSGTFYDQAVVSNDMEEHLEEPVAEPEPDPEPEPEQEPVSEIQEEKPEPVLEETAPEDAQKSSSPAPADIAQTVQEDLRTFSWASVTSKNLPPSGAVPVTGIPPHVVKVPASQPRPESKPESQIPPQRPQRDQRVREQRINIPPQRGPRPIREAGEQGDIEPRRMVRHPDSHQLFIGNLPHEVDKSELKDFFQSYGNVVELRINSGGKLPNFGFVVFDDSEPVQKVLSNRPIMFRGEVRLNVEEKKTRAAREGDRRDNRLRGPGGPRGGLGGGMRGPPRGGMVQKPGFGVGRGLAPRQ
# Shared flanks, not repeated: GGGAGUUCUACAGUCCGACGAUC … UGGAAUUCUCGGGUGUCAAGG
Oligonucleotide,log2 enrichment
UUAAUAGAUUGAACUUCAAAAAAAAAUUCUUUCUUAAUUUCUGGAUUAAAAAGUAUGCCUGUGUCUUCUAGACCUUUACCAGAAGAUGAU,-0.246
CUCAAGUCCUGUGCUACACAUCGUAUGUACCGAAUCGGGGAGGGAGGGGAGGGAAAGUAUUAUGUUACGCCGUUCGGAUCUGCACUUCCA,0.722
ACCAUGCAGGUGGGCAUCUCUGGGAAGUGGGGCAAGGGGGGGAUAGGGAGGGGGGUAACACUUUGGGAACAGGUGGUCCCAGGUCGUUUC,-0.351
GUCCUGUGCUACACAUCGUAUGUACCGAAUCGGAAAAAGGGGAAAAAGGGGAAAAAGGAAAGUAUUAUGUUACGCCGUUCGGAUCUGCAC,0.0144
UGGCACUGGUGGCAUGCGGGGAGGAAGAGGUGGCCUCAUGGAUCGUGGUGGUCCCGGUGGAAUGUUCAGAGGUGGCCGUGGUGGAGACAG,0.389
CCUGUGCUACACAUCGUAUGUACCGAAUCAAACCCCCCCAAACCCCCCCAAAUUUUUAAAAAAGUAUUAUGUUACGCCGUUCGGAUCUGC,-0.0269
UCAAGUCCUGUGCUACACAUCGUAUGUACCGAAUCGGCCCGGGCCCGGGGCCCGGAAAGUAUUAUGUUACGCCGUUCGGAUCUGCACUUC,-0.551
CCUGUGCUACACAUCGUAUGUACCGAAUCAAACCCCCCCAAAUUUUUUUAAACCCCCAAAAAAGUAUUAUGUUACGCCGUUCGGAUCUGC,-0.704
GCAGGAAGUAAAAACAAAAAGAAAUGCUUCGGAUAGUGGCAGGGGUGGGGGUUGCUAAGGAAAGGGUGGGAUGGGAGUGGGUAAAGAGUU,1.48
CCUCAAGUCCUGUGCUACACAUCGUAUGUACCGAAUCGGGAGGGGAGGGAGGAAAGUAUUAUGUUACGCCGUUCGGAUCUGCACUUCCAG,-0.012
GUCCUGUGCUACACAUCGUAUGUACCGAAUCAAAUUUAAACCCCCAAAUUUUUUUAAAAAAGUAUUAUGUUACGCCGUUCGGAUCUGCAC,-0.375
GUCCUGUGCUACACAUCGUAUGUACCGAAUCGGAAAAAAAGGAAAAAGGUUUUUUUGGAAAGUAUUAUGUUACGCCGUUCGGAUCUGCAC,-0.0204
UGGCCCUGGUGGCAUGCGUGGAGGAAGAGGUGGCCUCAUGGAUCGUGGUGGUCCCGGUGGAAUGUUCAGAGGUGGCCGUGGUGGAGACAG,0.735
UCCUGUGCUACACAUCGUAUGUACCGAAUCGGGGUUUGGGGUUUUUUUGGGGAAAGGGGAAAGUAUUAUGUUACGCCGUUCGGAUCUGCA,1.12

# Block 3 — technique: protein binding microarray; form: double-stranded DNA, one strand shown; medium: in vitro; concentration: not given; reference: not given; direction: higher = stronger binding
# Target: Histone acetyltransferase KAT6A, winged helix 1, GST fusion (KAT6A, Homo sapiens, UniProt Q92794, residues 1-85)
# Notes: 8-mer, flanks averaged, mean of 2 arrays, mostly near background
# Target sequence (chain): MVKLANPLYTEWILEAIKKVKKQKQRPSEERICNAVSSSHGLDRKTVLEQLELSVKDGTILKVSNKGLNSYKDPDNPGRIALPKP
Oligonucleotide,E-score
ACCCGGCT,0.202
AGGTGGAC,-0.232
ACTAATGA,-0.151
GGATTTGA,-0.0633
AACTTACA,-0.272
CACATGAG,-0.0586
CCTCATCC,-0.0952
GCGGACCC,0.336
AGTCGGCC,0.102
GAGCCTAC,-0.143
CTGTCCCA,-0.179
ATTATGTC,-0.0835
GCAATAAC,-0.00732
GGGTAGGA,0.0897
ATTTATCA,-0.0513
AGCGGGAT,0.306
ATAACGAC,-0.07
CACTCCGC,0.103
AACCAGAG,-0.226
ACAACACA,-0.27
CGGCTAGC,0.295
GTATCACA,-0.0481
ATACTGAT,-0.177

# Block 4 — technique: EMSA with sequencing; form: double-stranded DNA, one strand shown; medium: in vitro; concentration: 10 and 20 nM; reference: negative control set to 0; direction: higher = stronger binding
# Target: Hepatocyte nuclear factor 3-alpha (Foxa1, Mus musculus, UniProt P35582, residues 1-468, full length assumed)
# Notes: whole designed probe, mean of two concentrations, ends assumed
# Shared flanks, not repeated: GTGAGCGGTGCCCATTGATGGGGAAC … TTTCACTGGGATCGTGGGGAC
# Target sequence (chain): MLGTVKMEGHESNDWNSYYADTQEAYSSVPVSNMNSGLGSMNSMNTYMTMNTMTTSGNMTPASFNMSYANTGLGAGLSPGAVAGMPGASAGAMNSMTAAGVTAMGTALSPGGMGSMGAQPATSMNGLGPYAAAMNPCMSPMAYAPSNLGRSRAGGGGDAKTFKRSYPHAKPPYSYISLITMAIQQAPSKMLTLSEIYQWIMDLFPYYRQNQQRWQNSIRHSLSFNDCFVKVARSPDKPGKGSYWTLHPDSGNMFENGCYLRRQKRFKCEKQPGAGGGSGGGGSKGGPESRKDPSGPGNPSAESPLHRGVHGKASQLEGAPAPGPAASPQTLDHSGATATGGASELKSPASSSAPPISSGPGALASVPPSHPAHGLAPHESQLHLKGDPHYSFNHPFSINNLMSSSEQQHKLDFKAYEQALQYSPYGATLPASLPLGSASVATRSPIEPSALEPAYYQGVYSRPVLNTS
Oligonucleotide,normalised bound fraction [ratio]
TGATACAGAATTTCTCAGTATAATTACCTCCAGCCAGGTTGCTTTTTTAGCTCAAAAGAAAGATAAAAGGCGGAGTCCTGTAAATAAAGGGAATGTAAACATGGAGACTGAACCAAAGGCAAGTTACGGGGAGATAAGAATACCTGAAGAGAATTCGATTCAGCTTGATGGTTTTACAGAAGCATATGAAAGT,0.288
CATCAGCAGGCTTCCTCTGAGAAGTTTCCCATCGACGTATCCTCTTTCAAGGGCCTTCCAAGCATGGAGACATTTCCTCAGAGATAATAAGAGTAATCTGGGAACTAAGGCCTCCCAGACCTTGACAGCCTCTGCCTGAGTGCACAGATGCAGCTGGGCTGTGGCAGCTCCGACTCGCAGAGCCAGGCGCCGC,-0.0786
CTCATTCCTTGCTTCCGCCAATAATCTGACTAGTAAAGAAGTCACTGCATGCCACAAATTGTCAGTGCTGACTTCCTCAACAAGGAAGTTATTTATTTACTTATTTAATATATATGCAAATTCCGAGTGACTCAGATCTTGAGAATACCAACTCCTGATGCCAACTGATTGTCAGTCATGGCTACAACAGGAG,0.457
AATAGCGCTCTGGAGAGAAGGTCCGTTCCATGCCCAGGTAGGGAGGAGGGGGAAAAATGATACTGGCGGGCAGGGAGAGGGGAAGGCAAGAAAGCAAACAGGCGTGGAAGAGCTGTGACGTCAAATCTGACTTCTTTTGTCTGTAGACGGGGGAATCCAGGGTGACTGGGTATAATCTGTATTATCTAGGTCC,0.0591
TCGGCCAGCCTGGCTTCTGCGCCCCGCCAGGAGGTCGCGGAGCGGAGCGCGGCCAGGAAGTGAGCTGAGAGTGACAGCTCCCCCCACGCTGTTTGTTTATTCTCTCCACACACTGGATGACTCATTCCTCTTCTTTCTTTCGGGAGGAGGGGAGAAAGGAGCGGGAGGGCGGGCGGGCAGGGGAGAGGCAGGC,0.323
AGTAGCTGAGTCATCTCTGAGAAGAACATTCCCATCTTCAATCGCTGCGGCTGCCTGTTGTGGACGGCCCGGCTGACACGGGTAACTTGATCTGTTTACTCTGGGATTCCTAAGCCCACAGAGTGAGGCCCTCACACGGGGCCTCTCCCCGGGCATCCTGGGCGAGGAGCCCTGGCCCAGCCAGAGTCCCGTT,0.284
GGCTCCAAACGGCTGAATCAGCATTTTCAGAAACAAAGTGTTCTAGGCCTGGCCTTTTAAACAGCAGCAACGAGCAAGATGTGCATTAACGCATATTTACTCACGAGCTCTCCTTGTTTTGGTCTTTCCCCCCTCCCCCCCATCTCTTGAATGAAACTGGGCACCAAGTTTGCAAGAAAATATTCTTTCAAAC,0.107
ACTATTGACCAAATTTTACTAACCCTTTTGTTGGAAGAAATTGTTGGCAGCTATAAACAGTATGAGTATTACAGCCTTAGTTTCAGACTATATGTTTACATTGTCCAATAAATCTCTTCCTACTCCATATTTAGAACACTGTATAGAATAGTAAAAGCTAGAACAATCTTTACAATCACCAGTCTGTAGATTC,0.413

# Block 5 — technique: aptamer microarray, sandwich; form: DNA with 2'F-ANA; medium: in vitro; concentration: 200 nM; added: Cy3 exosite-II aptamer, 400 nM; direction: higher = stronger binding; oligonucleotide: GGTTGGTGTGGTTGG
# Target: Prothrombin, mature alpha-thrombin (F2, Homo sapiens, UniProt P00734)
# Notes: whole 15-mer aptamer, many near background
Modification,mean fluorescence intensity
2'F-ANA at 2 3 5 6 13,83.7 a.u.
2'F-ANA at 1 2 5 6 13,48.6 a.u.
2'F-ANA at 2 3 8 9 12 14,504 a.u.
2'F-ANA at 1 2 3 4 5 8 9 11 12 13 14 15,48.1 a.u.
2'F-ANA at 1 2 4 5 10 11 13 15,48.2 a.u.
2'F-ANA at 3 4 5 8 12 13 15,137 a.u.
2'F-ANA at 1 2 4 5 6 8 9 10 11 14 15,83.2 a.u.
2'F-ANA at 1 2 3 4 5 7 14 15,43.6 a.u.
2'F-ANA at 2 3 5 6 7 9 12 13,122 a.u.
2'F-ANA at 1 2 3 5 6 7 11 13 15,74.9 a.u.
2'F-ANA at 1 3 5 8 11 12 14,56.3 a.u.
2'F-ANA at 2 3 4 5 8 9 13 15,58.7 a.u.
2'F-ANA at 2 4 10 12 14,65.3 a.u.
2'F-ANA at 1 2 3 10 15,74.4 a.u.
2'F-ANA at 5 7 9 11 13 15,51.4 a.u.
2'F-ANA at 1 2 3 4 6 10 13 14 15,49.2 a.u.
2'F-ANA at 1 4 5 7 10 14,40.6 a.u.
2'F-ANA at 4 5 9 10 13 15,47.8 a.u.
2'F-ANA at 2 6 8 10 12 14 15,84.3 a.u.
2'F-ANA at 2 3 4 10 12 14,189 a.u.
2'F-ANA at 1 3 4 8 10 14 15,49.7 a.u.
2'F-ANA at 1 3 5 7 8 10 14,49.6 a.u.
2'F-ANA at 2 4 12,657 a.u.
2'F-ANA at 2 5 7 12 13,121 a.u.
2'F-ANA at 2 3 5 7 9 11 12 14 15,54.1 a.u.

# Excerpt of the above (block 1):
Oligonucleotide,7-mer Z-score
CAUAGAG,-0.137
UCGAUCU,-0.264
AGGUCGA,-0.0754
UUAGGCC,-0.151
UCUGGAG,-0.112
GUGCACA,-0.0881
GGCGGCG,0.309
CAGGGAG,0.14
UGAACCA,-0.0881
CCUCUGA,-0.173
CCCGAGU,-0.182
ACUCUCG,-0.34
ACAGUAA,0.195
AGUCUCU,-0.211
CGUCACC,-0.28
